Assay results pooled from the literature.
Numbered parts are unrelated; each lists some results of a single study.

Series 1
Target: RING finger protein unkempt homolog, zinc fingers 1-6, GST-SBP tag (UNK, Homo sapiens, UniProt Q9C0B0, residues 30-357)
Technique: RNA Bind-n-Seq
Molecule type: RNA
Sample: in vitro
Concentration: not given
Notes: RNA with constant flanks, human-mouse chimeric sites, ends assumed
Reference: input RNA pool
Direction: higher = stronger binding
Constant ends, left off below: GGGAGUUCUACAGUCCGACGAUC … CAACAGAGGAUUGAGCAUCA
Construct (chain): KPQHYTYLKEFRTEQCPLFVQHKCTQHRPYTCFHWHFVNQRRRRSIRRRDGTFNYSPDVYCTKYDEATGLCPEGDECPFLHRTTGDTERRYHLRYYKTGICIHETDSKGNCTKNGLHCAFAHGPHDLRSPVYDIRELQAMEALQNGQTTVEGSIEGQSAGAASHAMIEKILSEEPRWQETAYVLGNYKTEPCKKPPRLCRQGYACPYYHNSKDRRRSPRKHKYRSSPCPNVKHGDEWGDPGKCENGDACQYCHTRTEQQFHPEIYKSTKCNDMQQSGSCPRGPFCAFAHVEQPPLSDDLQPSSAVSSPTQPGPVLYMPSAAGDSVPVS
For `GGCUGCUGGUGACUGUCCUGGAGUGGCCGUGUCACCGCCGGAACCUGGGCCAGACUAAUUUUAGAAAAUGCCAAGUAGGAAGUUUGUUGAGGGUGAAGUGGUCAGAGGCCGAUGGCCUGG`, the bound/input enrichment was 1.64 ratio.
`AUGGAACAUUUCGAUGCGUCACUCAGUACCUAUUUCAAGGCCUUCCUGGGCCCCCGAGAUACAAGAGUCAAAGGAUGGUUUCUUCUGGACAAUUACAUCCCUACGUUUAUCUGCUCUGUU` gave a bound/input enrichment of 0.0856 ratio.
With `CUUAAUGAUAUUUUGAGUGAAUAAAUGAAGCUAAAAUGUCUGCUUUUGGUACAACACGCAUUAAUAAAAGGUUAAGUUUUGUUUUCCACUGAAGUACUAUUUAACAUACAUCUCAGAAAC` the bound/input enrichment was 0.0984 ratio.
With `CAGCUGCAGACAGAAAAGGAUGAGAAGGAACUUUAUAAGGUACAUUUGAAGAAUACAGAAAUAGAAAAUACGAAGCUUGUGUCAGAGAUACAGACUUUAAAAAAUUUAGAUGGAAACAAA` the bound/input enrichment was 5.17 ratio.
For `CACAGAGGAGACCUCCUGUUCCUCACGAAUUUCCGGGAGGACCCCAUCAGAGCUGGUGAAAUAGUUGUUUUUAAGGUUGAAGGAAGAGACAUUCCGAUAGUUCACAGAGUAAUCAAGGUU`, the bound/input enrichment was 5.95 ratio.
For `GAUCAUGAACCACCAUCAGAAAUGAAGAUGAGAUUACCCAGACGAGCCAAAACAGCUGCGCUACAGAAAAGUAAACUUUAACCUUGCGAGUUCCUUAAUGAAGAUACAAGUUAAGAGAGC`, the bound/input enrichment was 0.315 ratio.
With `CUGGCACUCUAUCAGAUAUAUUAAUUUUUAAAUGUAGAUGUAAUUUUAAAAAUGAAUGGCUACUUUACACGUUUAACUAGGGUUUUACUAUAUAUGUGUACAUAUGUAUAUAUAUAUAUA` the bound/input enrichment was 8.55 ratio.
For `UCCCUGUUGCUGAAUAAAUGGCUUGUAAAGAAGUUUUUCCAAGCUGUAACCCAUGCUGUUAUUAUAGUUGCUGCAAAAUGUUCUUCCUGAUAUUGAUGUUUGUUUACAACUGAAGGUCUC`, the bound/input enrichment was 0.335 ratio.
`GUAGCUGGCCAUUAGGAAAUGCUGGUAAUUUCAGUCACUUGCUGAUGACUUCUGAUGUCCCAGCAAAUGUUGGCAUUGUUGACUGCUGAGAAGAUACACUCGCAAGGCCACGUCUAAGGU` gave a bound/input enrichment of 0.247 ratio.
For `AAAUUUCCUCUCUUAAAACCUCCUCCGAAGUUGGAGUCUCUUACAGAUGCCUCAUCCCCUGUUAGCGUUUUAGUUUGGACCACCCAGCCUUGGACAAUUCCCGCCAACCAGGCAAUUUGC`, the bound/input enrichment was 1.4 ratio.
With `GGAUCUUGUGACUGGCUUUACUUAAUUGGUCAUUGAUAGCUUAACAAACAUGGAGAUAAGAUUAGAAAUCUUGACAUCAACAGGUAUUAAGCAGAAAAAACCAUGGCCACGUGUCUCCUG` the bound/input enrichment was 0.173 ratio.

Series 2
Target: Histone acetyltransferase KAT6A, winged helix 1, GST fusion (KAT6A, Homo sapiens, UniProt Q92794, residues 1-85)
Technique: protein binding microarray
Molecule type: double-stranded DNA, one strand shown
Sample: in vitro
Concentration: not given
Notes: 8-mer, flanks averaged, mean of 2 arrays, mostly near background
Reference: not given
Direction: higher = stronger binding
Construct (chain): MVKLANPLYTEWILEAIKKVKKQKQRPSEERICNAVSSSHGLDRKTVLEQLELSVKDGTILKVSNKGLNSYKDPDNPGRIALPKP
For `ATAAGGCG`, the E-score was 0.192.
`AATAGACC` gave an E-score of -0.0141.
`AACGCTCC` gave an E-score of 0.0191.
The E-score of `ACTAATCT` is reported as -0.11.
`ATAGTAAG` has an E-score of -0.0762.
`GCCCTAAA` gave an E-score of 0.137.
For `AGCAATGG`, the E-score was -0.183.
The E-score of `TGCGCGAA` is reported as 0.293.
With `AACTCTTC` the E-score was -0.172.
The E-score of `CGCAAGTA` is reported as 0.157.
`CGTAGTGC` has an E-score of 0.143.
For `AGGATGAG`, the E-score was -0.0202.
With `CAACCCTA` the E-score was -0.235.
`AATCGGCC` gave an E-score of 0.201.
`CTATTTAA` has an E-score of -0.0436.
`TAAAGACA` gave an E-score of -0.0551.
The E-score of `CACCTAGC` is reported as -0.0293.
The E-score of `CAAACTTA` is reported as 0.0676.
With `ACGCAGTC` the E-score was -0.0703.

Series 3
Target: Ras GTPase-activating protein-binding protein 1, full length (G3BP1, Homo sapiens, UniProt Q13283)
Sequence of UniProt Q13283 (whole entry, looked up): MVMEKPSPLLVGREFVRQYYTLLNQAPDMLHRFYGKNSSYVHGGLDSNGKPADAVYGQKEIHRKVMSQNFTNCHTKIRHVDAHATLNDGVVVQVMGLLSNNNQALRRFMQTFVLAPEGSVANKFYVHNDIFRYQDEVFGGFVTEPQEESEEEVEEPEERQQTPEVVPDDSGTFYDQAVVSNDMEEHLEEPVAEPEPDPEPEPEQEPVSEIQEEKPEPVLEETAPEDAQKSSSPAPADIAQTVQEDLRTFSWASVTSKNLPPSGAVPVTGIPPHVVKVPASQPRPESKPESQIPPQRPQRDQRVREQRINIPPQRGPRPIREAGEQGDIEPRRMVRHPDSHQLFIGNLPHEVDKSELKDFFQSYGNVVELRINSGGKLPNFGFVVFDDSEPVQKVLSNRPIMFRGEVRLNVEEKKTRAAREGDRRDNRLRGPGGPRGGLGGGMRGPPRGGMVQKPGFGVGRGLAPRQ
Technique: RNA Bind-n-Seq
Molecule type: RNA
Sample: in vitro
Concentration: 200 nM
Notes: whole 134-nt RNA, ends assumed
With: 150 mM LiCl
Reference: input library
Direction: higher = stronger binding
All molecules: 7-deaza-guanosine replaces G
Constant ends, left off below: GGGAGUUCUACAGUCCGACGAUC … UGGAAUUCUCGGGUGUCAAGG
The log2 enrichment of `UGUUGAUGCUGUAAUUGCUGAACUUAAAAAGCAGUCUAAACCUGUGACCACCCCUGAAGAAAUUGCACAGGUAAGGACUUAACAUGUUAC` is reported as 0.368.
With `UCCUGUGCUACACAUCGUAUGUACCGAAUCGGGGCCCCCGGGCCCCCGGGCCCCCGGGGAAAGUAUUAUGUUACGCCGUUCGGAUCUGCA` the log2 enrichment was -1.36.
With `UCAAGUCCUGUGCUACACAUCGUAUGUACCGAAUCGGGCCGGGGCCGGGCCGGGGAAAGUAUUAUGUUACGCCGUUCGGAUCUGCACUUC` the log2 enrichment was 0.5.
The log2 enrichment of `CUGUGCUACACAUCGUAUGUACCGAAUCGGCCCCCCCGGGGCCCCCCCGGCCCCCCCGGGGAAAGUAUUAUGUUACGCCGUUCGGAUCUG` is reported as -0.225.
The log2 enrichment of `UAACUUUAGAGGAGGAUCUGAUGGAUAUGGCAGUGGACGUGGAUUUGGGAAUGGCUAUAAUGGGUAUGGAGGAGGACCUGGAGGUGGCAA` is reported as -0.247.
`CAAGUCCUGUGCUACACAUCGUAUGUACCGAAUCGGCCCGGGGCCCGGGCCCGGGGAAAGUAUUAUGUUACGCCGUUCGGAUCUGCACUU` has a log2 enrichment of -1.08.
The log2 enrichment of `CUCAAGUCCUGUGCUACACAUCGUAUGUACCGAAUCGGGGAGGGAGGGGAGGGGAAAGUAUUAUGUUACGCCGUUCGGAUCUGCACUUCC` is reported as -0.176.
`ACCAUGCAGGUGGGCAUCUUUGGGAAGUGGGGCAAGGGGGGGAUAGGGAGGGGGGUAACACAUUGGGAACAGGUGGUCCCAGGUCGUUUC` has a log2 enrichment of 0.154.
`CACAGACAACACGCACCCACACAGACACAGAGGGAAGGGGUUGGGAUGGGCACAGGGUGCACAGCAGGGCGGGGUAGGACCCCAGCCCCU` gave a log2 enrichment of 0.388.
`UCCUGUGCUACACAUCGUAUGUACCGAAUCGGGGAGGGGUUUUUGGGGAAAAAAAGGGGAAAGUAUUAUGUUACGCCGUUCGGAUCUGCA` has a log2 enrichment of 0.366.
`UGGGAGGUGGAUUUUGUUUAUUUUUUUAGCUCAUUUCCAGGGGUGGGAAUUUUUUUUAAAUAUGUGUCAUGAAUAAAGUUGUUUUUGAAA` has a log2 enrichment of -0.489.

Series 4
Target: RNA binding protein fox-1 homolog 2, RRM domain, GST-SBP tag (RBFOX2, Homo sapiens, UniProt O43251-10, residues 100-194)
Technique: RNA Bind-n-Seq
Molecule type: RNA
Sample: in vitro
Concentration: 365 nM
Notes: natural RNA segment, single round, ends assumed
Reference: no-protein control
Direction: higher = stronger binding
Constant ends, left off below: GGGAGUUCUACAGUCCGACGAUC … UGGAAUUCUCGGGUGCCAA
Residues (chain): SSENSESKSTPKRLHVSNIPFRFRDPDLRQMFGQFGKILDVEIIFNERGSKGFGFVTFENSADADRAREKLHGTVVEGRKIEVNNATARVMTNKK
`UGAGUCAUAGAAAAAUGGCCUUAUUUCUCCAGAAGUGAGUAAACCACACUUCCAGGCUAUCUGAACUCCUGAAGCCCUAAAAAUAAAAAGCACAGUUGUAACUACCUGAA`: “RBNS enrichment (R)” 0.667.
`GUUGUCUGACCAUAACAUGAUUUUUUUCUAAGAUGAAAUCCACAGAAGUUCUUAACUGUUAAAAAGUUACUUUUGACUUUGCUAGAUAAGGAGGCGAACCCAAGUGUGUG` — result for “RBNS enrichment (R)”: 0.39.
Under “RBNS enrichment (R)”, `UGCCACUAACCCCUCUCCACCACUUGCUCACUCUUGGCCUUGGCCUUGGCCUUUAGGUCCCUGGUGGAGGGAGAUGACCCAUGCCAGGUCCAGCACAAGAUGUGAAGAUU` is recorded as 0.443.
`UGGAGUCAGGUGGGCCCACGUAGGACAGGGUCACAAAGCCUGGGUUUGUUUCUGGGUACUUUGCGCCUCUGGGGUGCUAGAGGUGGGGCAUGGUGGCUGGAAGUAAAACU`: “RBNS enrichment (R)” 0.741.
Under “RBNS enrichment (R)”, `GUUUUUGAGGAUCCCUGGGUCUUCUGAGACUGGCCAGGAGAGGGAUGGUGGGGCCAGUGGUUGUGUGAAAGCAGGAGGGGCAGCCCUCCUGGACAAGUGUGAUCCCCCUA` is recorded as 0.318.
Under “RBNS enrichment (R)”, `AGCAUCUGCACUGGAAAUGCAGCAGGAGGGCCCAGUGAGGGAGGCCUGGAAAGUCCACUUGGACUUGACAAUGAGGAGCUCUCUGCUGUCACCUGCUGUGAUUCCUAGAG` is recorded as 0.401.
For `UGAACCACUGUGGCCUUCUCUUCUCAGCCUUCACUGUGACACGGGGGACAUUGAGUGACAAGCCUCAGAAUGUUACAGAGGUAAAGUGAGGCAUCUCAAAUCCACUGACA`, “RBNS enrichment (R)” read 0.932.
`CCUUCUAAAGUGAAAGUGAUGUUAGUUAAGUUAUUAUUGGUUUGUUGCCACCUGGUACCUUAAACUCGGUGGCUAUUCCCAUUGCUGUGUUUUAUUUGUAUAGUCUUACG`: “RBNS enrichment (R)” 0.31.
For `GGUAUAUAUUUUUGUUAUCAGGUGCAUGUCUGUCUGAUUUCCUUUUCUUCUCGUUGGGACUAUGUUUGUGAACAUGAGCGUCAUAAGUUAUGUUUCAGAUUUUCAAAUUU`, “RBNS enrichment (R)” read 26.6.
`UUUACCCCUUUCCCUUAAUUCCUAUUCUGAUGACACUUUGGACAUGAAUUCAAGGGGCAGAUGAAUUUUUGGCAUUGUGUUUUUUCUUACUCAAAAUCUGUUUAUUGGGU`: “RBNS enrichment (R)” 0.558.
For `AUGGAAUUAUCUGAGCUCUAUGGCACUGGUUGUUUAGAGUGACUGAUGAAGUGCAACUUUCAAAAACAUUUUUGAUGACAUCACCAGCCUACUGCAGAAGUGCAGGGCAC`, “RBNS enrichment (R)” read 0.211.
Under “RBNS enrichment (R)”, `CUGCUGUCACAGGCUGACACCUUACAGAUGUCCUGACCAUGGGUGACCCUCCUCGGAGCGUCCAGAUCCCCUCCUGCUCUGCUCUAUUACCUACUAGUGGUCCCUGGCAG` is recorded as 0.511.

Repeated from above (series 4):
Under “RBNS enrichment (R)”, `AGCAUCUGCACUGGAAAUGCAGCAGGAGGGCCCAGUGAGGGAGGCCUGGAAAGUCCACUUGGACUUGACAAUGAGGAGCUCUCUGCUGUCACCUGCUGUGAUUCCUAGAG` is recorded as 0.401.
`UUUACCCCUUUCCCUUAAUUCCUAUUCUGAUGACACUUUGGACAUGAAUUCAAGGGGCAGAUGAAUUUUUGGCAUUGUGUUUUUUCUUACUCAAAAUCUGUUUAUUGGGU`: “RBNS enrichment (R)” 0.558.
For `UGAACCACUGUGGCCUUCUCUUCUCAGCCUUCACUGUGACACGGGGGACAUUGAGUGACAAGCCUCAGAAUGUUACAGAGGUAAAGUGAGGCAUCUCAAAUCCACUGACA`, “RBNS enrichment (R)” read 0.932.
For `GGUAUAUAUUUUUGUUAUCAGGUGCAUGUCUGUCUGAUUUCCUUUUCUUCUCGUUGGGACUAUGUUUGUGAACAUGAGCGUCAUAAGUUAUGUUUCAGAUUUUCAAAUUU`, “RBNS enrichment (R)” read 26.6.
For `AUGGAAUUAUCUGAGCUCUAUGGCACUGGUUGUUUAGAGUGACUGAUGAAGUGCAACUUUCAAAAACAUUUUUGAUGACAUCACCAGCCUACUGCAGAAGUGCAGGGCAC`, “RBNS enrichment (R)” read 0.211.
